# Results gathered from unrelated publications.
# Compare with care: the assays were run in different laboratories. Values joined by “and” are separate records of one study, mostly repeats; a detail may differ. ± gives the spread as reported.
SMILES,test,test system,conditions,how to read,measurement,result
C=C(C)C(=O)Nc1ccc(-c2c(-c3ccc(Oc4nccc(C)n4)cc3)c3c(N)ncnc3n2C)cc1,,"beagle dog, plasma","5 µM, 18 h",,unbound fraction,0.043
CSCCC(NC(C)=O)C(=O)O.[Ru+2].c1ccc(-c2cccc(-c3ccccn3)n2)nc1.c1ccc(-c2ccccn2)nc1,,water,470 nm light,,photosubstitution quantum yield,0.0027
CCCCCCCCCCCCCCCC(=O)N[C@@H](CCCCN)C(=O)N[C@H](C(=O)N[C@H](C(=O)N[C@@H](CCCCN)C(=O)N[C@@H](CO)C(=O)O)[C@@H](C)O)[C@@H](C)O,,"hairless mouse, skin, Franz cell","50 µg/cm^2 applied, 24 h",,percent of applied dose in epidermis,5.6%
CC(C)[C@H](NC(=O)CNC(=O)[C@H](CCC(N)=O)NC(=O)[C@H](C)N)C(=O)O,,"healthy volunteers, LPS endotoxaemia, plasma","intravenous, 90 mg/kg/h, 2 h infusion, geometric mean, added: LPS 2 ng/kg",,clearance,150 mL/min/kg
CCCC(CCC)NC(=O)c1ccc(OC2OC(C(=O)O)C(O)C(O)C2O)c(OC)c1 (stereo not shown),,"male Sprague-Dawley rats, plasma","oral, 200 mg/kg of parent drug",relative to: 200 over 20 mg/kg dose,AUC(0-last) ratio,3.97
C[C@H](Oc1cc(-c2cnn(C3CCN(CC[18F])CC3)c2)cnc1N)c1c(Cl)ccc(F)c1Cl,PET imaging,"nude mouse, muscle","iv, 5 min post injection",,tracer uptake,2 ± 0.6 %ID/cc
COc1cc(-c2nc3ccccc3s2)cc(CN2CCN(CC(=O)OC(C)(C)C)CCN(CC(=O)OC(C)(C)C)CC2)c1O,UV-Vis pH titration,,"25 °C, ionic strength 0.1 M NaCl",,pKa1,3.3
COc1ccc(/C=C/c2ccc(-c3ccc(C)cn3)nc2)cc1,TCSPC,acetonitrile,zinc-free ligand,,fluorescence lifetime,0.6 ns
C=C(c1ccc(C(=O)O)c(F)c1)c1cc2c(cc1C)C(C)(C)C=CC2(C)C,,"Sprague-Dawley rat, male, plasma","oral, 100 mg/kg, 1 h, sesame oil vehicle",,LDL level,35 ± 2.6 mg/dL
CC(C)c1cnc(-c2cc(Cl)ccc2F)cc1Nc1ccncc1C(=O)NC(CO)CO,refers to: intracranial tumour haemorrhage,human patients,"oral, dose not given, grade 1",,patients with related SAE,0%
CC(C)CCCC(C)CCCC(C)CCO[C@@H]1O[C@H](CO)[C@@H](O[C@H]2O[C@H](CO)[C@@H](O)[C@H](O)[C@H]2O)[C@H](O)[C@H]1O (stereo partly shown),dynamic surface tension,,0.0145 mmol/L,,surface tension at induction time,63.2 mN/m
CC(=O)N[C@@H](CCCCN)C(=O)N[C@@H](CO)C(=O)NCC(=O)N[C@@H](CO)C(=O)NCC(=O)N[C@@H](CCC(N)=O)C(=O)N[C@@H](CCC(N)=O)C(=O)N[C@@H](CCCCN)C(=O)N[C@@H](Cc1ccccc1)C(=O)N[C@@H](CCC(N)=O)C(=O)N[C@@H](Cc1ccccc1)C(=O)N[C@@H](CCC(N)=O)C(=O)N[C@@H](Cc1ccccc1)C(=O)N[C@@H](CCC(=O)O)C(=O)N[C@@H](CCC(N)=O)C(=O)N[C@@H](CCC(N)=O)C(N)=O,negative-stain TEM,1× PBS,0.2 mM,,nanofiber width,8.51 ± 1.12 nm
O=c1[nH]c(=O)n(C2OC(CO)C(O)C2O)cc1-n1nnc2c1CCC1C(CO)C1CC2 (mixture of isomers),,methanol,red edge of spectrum,,second excitation maximum,388 nm
C[C@](C#N)(COc1cc(C#N)ccc1C(F)(F)F)NC(=O)c1ccc(S(=O)(=O)C(F)(F)F)cc1,,"calves, plasma","oral, 2.5 mg/kg of monepantel",,last detectable time,≤ 216 h
Cn1c(=O)oc2ccc(-c3ccc(CC(C#N)NC(=O)C4CNCCCO4)c(F)c3)cc21 (stereo not shown),refers to: blood bilirubin increased,human,"60 mg single dose, fasted",,subjects with TRAE,0%
CCc1cc(C)n2nc(-c3ccc(OCC[18F])cc3)c(CC(=O)N(CC)CC)c2n1,,"rat, plasma",60 min,,parent radioligand in plasma,46.6%
C[Si](C)(C)C[C@@H](CN)CC(=O)O,neuromuscular coordination,Wistar rat male,"oral, 300 mg/kg, 3 h",,performance time,180 s
Cc1[nH]nc2c1N=C(c1ccccc1Cl)c1cnc(N(CCO)CCO)cc1N2,,"human, feces","oral, 10 mg, 0 to 192 h",relative to: dose,excretion in feces,2.72%
Cc1ccc(OCC(=O)O)cc1,,"Sprague-Dawley rat, male, plasma","oral gavage, 30 mg/kg of parent drug",relative to: compound over parent drug,AUC(0-last) ratio,2380
COc1cc2ncnc(Oc3ccc4c(C(N)=O)c(C)oc4c3)c2cc1OC,refers to: AUC0-inf,"human, moderate renal impairment",oral,relative to: normal renal function,decrease in exposure,~25%
N=C(N)NCCC[C@@H]1NC(=O)[C@H](Cc2c[nH]c3ccccc23)NC(=O)[C@@H](CC2CCCCC2)NC(=O)[C@@H]2CCCN2C(=O)[C@@H](NC(=O)CCc2ccccc2)CCCNC1=O,,"C57BL/6J mice, brain","subcutaneous, 1 mg/kg",,elimination half-life,32.9 min
C[Si]1(C[C@@H](CN)CC(=O)O)CCCC1,neuromuscular coordination,Wistar rat male,"oral, 300 mg/kg, 1 h",,performance time,180 s
NS(=O)(=O)c1ccc(N2N=C(C(F)(F)F)CC2c2ccc(F)cc2F)cc1 (stereo not shown),,"beagle dog, plasma","oral, 1 mg/kg, single dose",,Cmax,384 ng/mL
CCC(C)N(C)C(=O)c1nc(-c2cccc(C(F)(F)[18F])c2)c2ccccc2n1 (stereo not shown),,"Sprague-Dawley rat, brain","intravenous, 60 min",,parent compound remaining,98% and > 98%
C#CCOc1ccc(/C=C2\SC(=O)N(CC(=O)NCc3ccccc3)C2=O)cc1,inverse Kirkwood-Buff integrals,binary solvent mixture,"concentration not given, 298.15 K, mole fraction x1 0.05",,correlation volume,1420 cm³/mol
CC(C)[C@H](NC(=O)CNC(=O)[C@H](CCC(N)=O)NC(=O)[C@H](C)N)C(=O)O,LC-MS/MS,"human, male, plasma","intravenous, 30 mg/kg three times daily, day 2, first dose, 10 min infusion, geometric mean",,volume of distribution,19 L/kg
CC(C)C[C@@H](NC(=O)[C@H](NC(=O)[C@H]1CCCN1)[C@H](C)O)C(=O)N[C@H](Cc1c[nH]cn1)C(=O)N[C@@H](C(=O)N[C@H](Cc1c[nH]cn1)C(=O)N[C@H](CC(N)=O)C(=O)N[C@H](CCCNC(=N)N)C(=O)N[C@H](CCCNC(=N)N)C(=O)N[C@H](CCCNC(=N)N)C(=O)N[C@H](CCCNC(=N)N)C(=O)N[C@H](CCCNC(=N)N)C(N)=O)[C@H](C)O,,"Beagle dog, CSF","oral, 50 mg/kg",,AUC(0-inf),659 ± 605 ng·h/mL
Oc1ccc2ccccc2c1/N=N/c1ccccc1,,"Sprague-Dawley rats both sexes, whole blood","oral, 50 mg/kg",,MRT(0-inf),72.5 min
CCCCCCCCCCCCCC(=O)N[C@@H](CO)C(=O)N[C@H](C(=O)N[C@@H](Cc1ccc(O)cc1)C(=O)N[C@@H](CCCNC(=N)N)C(=O)N[C@@H](CCCNC(=N)N)C(=O)NCC(=O)N[C@@H](C)C(=O)N[C@@H](CCCNC(=N)N)C(=O)N[C@@H](CCCNC(=N)N)C(=O)N[C@@H](Cc1c[nH]c2ccccc12)C(=O)N[C@@H](CCCNC(=N)N)C(=O)N[C@@H](CCCCN)C(=O)N[C@@H](CC(C)C)C(=O)O)[C@@H](C)CC,,"Sprague-Dawley rat, CA1 neurons, hippocampal slices","5 µM, 15 min",,baseline AMPAR EPSC,no effect
CC[C@H](C)[C@H](NC(=O)[C@@H](NC(=O)[C@H](CS)NC(=O)[C@H](C)NC(=O)[C@H](CC(N)=O)NC(=O)[C@H](CCCNC(=N)N)NC(=O)[C@H](CCCNC(=N)N)NC(=O)[C@H](CC(N)=O)NC(=O)[C@H](CCCNC(=N)N)NC(=O)[C@H](CCCNC(=N)N)NC(=O)[C@H](C)NC(=O)[C@H](CS)NC(=O)[C@H](CC(C)C)NC(=O)[C@@H](NC(=O)[C@@H](NC(=O)[C@H](CS)NC(=O)[C@H](CCCCN)NC(=O)[C@@H](N)CCCNC(=N)N)C(C)C)[C@@H](C)CC)C(C)C)C(=O)N[C@@H](CC(C)C)C(=O)N[C@@H](CS)C(=O)N[C@@H](CCCNC(=N)N)C(=O)O,LC-MS,PBS,0.1 mg/mL,,single disulfide form,12%
CC(NCCc1nsc2ccccc12)c1cccc2c1OCO2 (stereo not shown),,mouse,"subcutaneous, 3 mg/kg, 6 h",,serum calcium,2.4 mM
O=C(NC1CC=C(c2cc3c(Nc4cc5ncsc5cc4F)ncnc3s2)CC1)NC1CC1 (racemic),,human liver microsomes,1 µM,,intrinsic clearance,< 12 mL/min/g protein
COc1cc2c(cc1OC)CN(CCCCn1ccc3cc(OCC[18F])ccc31)C2,,male ICR mice,"intravenous, 120 min post-injection",,heart uptake,2.31 ± 0.16 %ID/g
COC(=O)C1OC(Oc2c(-c3ccccc3)oc3cc(O)c(O)c(O)c3c2=O)C(O)C(O)C1O (stereo not shown),,"BALB/c mouse, liver",2 mg/kg,,organ weight,3.6 ± 0.7 g

# Some of these lines once more:
SMILES,test,test system,conditions,how to read,measurement,result
CC(C)c1cnc(-c2cc(Cl)ccc2F)cc1Nc1ccncc1C(=O)NC(CO)CO,refers to: intracranial tumour haemorrhage,human patients,"oral, dose not given, grade 1",,patients with related SAE,0%
CC(C)CCCC(C)CCCC(C)CCO[C@@H]1O[C@H](CO)[C@@H](O[C@H]2O[C@H](CO)[C@@H](O)[C@H](O)[C@H]2O)[C@H](O)[C@H]1O (stereo partly shown),dynamic surface tension,,0.0145 mmol/L,,surface tension at induction time,63.2 mN/m
CC(=O)N[C@@H](CCCCN)C(=O)N[C@@H](CO)C(=O)NCC(=O)N[C@@H](CO)C(=O)NCC(=O)N[C@@H](CCC(N)=O)C(=O)N[C@@H](CCC(N)=O)C(=O)N[C@@H](CCCCN)C(=O)N[C@@H](Cc1ccccc1)C(=O)N[C@@H](CCC(N)=O)C(=O)N[C@@H](Cc1ccccc1)C(=O)N[C@@H](CCC(N)=O)C(=O)N[C@@H](Cc1ccccc1)C(=O)N[C@@H](CCC(=O)O)C(=O)N[C@@H](CCC(N)=O)C(=O)N[C@@H](CCC(N)=O)C(N)=O,negative-stain TEM,1× PBS,0.2 mM,,nanofiber width,8.51 ± 1.12 nm
